Measured values of several laboratories.
“And” joins repeats or separate records; there may be more than shown.

SMILES | cell line | test | system | setting | how to read | measurement | result
C(=N\Nc1nc(-c2ccccn2)nc2ccccc12)/c1ccccc1 | LDR | silenced CMV-GFP reporter derepression, qHTS | – | – | – | efficacy | 202%
Cc1cc(Cl)cc(-c2ccnc3cc(CN4C(=O)C5C(C4=O)C5(C)C)sc23)c1C[C@@H]1CNCCO1 (stereo partly drawn) | CHP-212 resistant | PI staining flow cytometry | – | 0.3 µM, 24 h | – | cells in S phase | 12.4% and 18.3% and 13.9%
Cc1ncsc1-c1ccc(C(C)NC(=O)C2CC(O)CN2C(=O)C(NC(=O)CCCCCCCCCCN2CCCC(Nc3ncc(Cl)c(Nc4ccccc4S(=O)(=O)C(C)C)n3)C2)C(C)(C)C)cc1 (stereo not drawn) | 22Rv1 | RNA-seq, refers to: MIS12 mRNA | – | concentration not given | reference: DMSO | log2 fold change | -1.14
CN1CCCNC(=O)c2cccc(c2)C(=O)NCCCN(C)CCCNc2cccc3c2C(=O)c2cccc(c2C3=O)NCCC1 | SAS | RNA-Seq, refers to: ZNF263 mRNA | – | 1 µM, 6 h | reference: untreated cells | log2 fold change | -0.662
Cc1cc(NC2CCN(C)CC2)ccc1-c1cc2c(N3CCC[C@H](C(=O)Nc4ccc(C(F)(F)F)cc4)C3)ncnc2[nH]1 | NCI-H2228 | cell growth or viability, MTT | – | 0.2 µg/mL, 72 h | – | inhibition | 70.2%
O=C(C[Se]C(=O)c1ccc2ccccc2n1)Nc1cccc(C(F)(F)F)c1 | NCI60 renal subpanel | cell growth, inhibitor | – | five-dose | – | GI50 | 1.91 µM
O=C(NCc1ccc(OC(F)(F)F)cc1)[C@H]1CCCN(c2ncnc3[nH]c(-c4ccc(C(F)(F)F)cc4)cc23)C1 | NCI-H2228 | cell growth or viability, MTT | – | 5 µg/mL, 72 h | – | inhibition | 44.9%
COCC/N=C(\S)N/N=C(\C)c1ccccc1O | LDR | silenced CMV-GFP reporter derepression, qHTS | – | – | – | Emax | 65%
CO[C@@H]1[C@@H](OC(N)=O)[C@@H](O)[C@H](Oc2ccc3c(O)c(NC(=O)c4ccc(O)c(CC=C(C)C)c4)c(=O)oc3c2C)OC1(C)C | HCT-116 parental | – | – | 100 µM, replicate 1 | – | colony count | 19.5
COC(=O)c1cc(NC2=NC(=O)C(=Cc3ccc(N(C)C)cc3)S2)ccc1OC(C)=O | MCF7 | refers to: RNF111 mRNA | – | 0.81 µM (IC50), 24 h | reference: DMSO | fold change | 0.533
CN[C@H]1CCN(C(=O)c2c(C)cc(C(F)(F)F)nc2-c2ccnc3cc(CN4C(=O)C5C(C4=O)C5(C)C)sc23)C1 (stereo partly drawn) | HT-29, fibroblast and PBMC co-culture | BioMAP CRC oncology system | – | 0.3 to 8.1 µM, 48 h | – | IL-17A secretion | decreased
CCN(CC)CC(=O)Nc1cccc(-n2cc(-c3ccc4ccc(-c5cn(-c6cccc(NC(=O)CN(CC)CC)c6)nn5)cc4c3)nn2)c1 | RCC4 | PCR angiogenesis array, refers to: MMP2 | – | 5 x IC50, 4 h, normoxia | reference: untreated | fold regulation | 1.65
C=CC(=O)N1CCCC(n2c(=O)c3ncccc3n(Cc3ccc(Oc4ccccc4)cc3)c2=O)C1 (stereo not drawn) | Rec1 | refers to: TMCC1-AS1 | – | concentration not given | reference: untreated | log2 fold change | -0.509
O=C(C[Se]C(=O)c1ccccc1Nc1cccc(C(F)(F)F)c1)Nc1cccc(C(F)(F)F)c1 | NCI60 renal subpanel | cell growth, inhibitor | – | five-dose | – | GI50 | 1.89 µM
Cc1cc(N2CCCCC2)ccc1-c1cc2c(N3CCC[C@H](C(=O)NCc4ccc(OC(F)(F)F)cc4)C3)ncnc2[nH]1 | NCI-H2228 | cell growth or viability, MTT | – | 0.2 µg/mL, 72 h | – | inhibition | 72%
CNS(=O)(=O)Nc1nccc(Cc2c(C)c3ccc(Oc4ncccc4F)cc3oc2=O)c1F | SKNO-1 | cell viability | – | 7 days | – | IC50 | 0.00499 µM
O=C(NCc1ccc(OC(F)(F)F)cc1)[C@H]1CCCN(c2ncnc3[nH]c(-c4ccncc4)cc23)C1 | NCI-H2228 | cell growth or viability, MTT | – | 1 µg/mL, 72 h | – | inhibition | 72%
CCN(C(=O)c1cc(F)ccc1Oc1nncnc1N1CCC2(C1)CN([C@H](CCCN(C)CCOC)C(C)C)C2)C(C)C | SK-LMS-1 | – | uterus | 72 h | – | GI50 | > 10 µM

Repeated from above:
SMILES | cell line | test | system | setting | how to read | measurement | result
Cc1cc(Cl)cc(-c2ccnc3cc(CN4C(=O)C5C(C4=O)C5(C)C)sc23)c1C[C@@H]1CNCCO1 (stereo partly drawn) | CHP-212 resistant | PI staining flow cytometry | – | 0.3 µM, 24 h | – | cells in S phase | 12.4% and 18.3% and 13.9%
CO[C@@H]1[C@@H](OC(N)=O)[C@@H](O)[C@H](Oc2ccc3c(O)c(NC(=O)c4ccc(O)c(CC=C(C)C)c4)c(=O)oc3c2C)OC1(C)C | HCT-116 parental | – | – | 100 µM, replicate 1 | – | colony count | 19.5
